Measurements collected from several papers.
Compare with care: the assays were run in different laboratories.
Organism: Streptococcus pneumoniae

SMILES | test | system | conditions | MIC
CC[C@H](C)[C@H](N)C1=N[C@H](C(=O)N[C@@H](CC(C)C)C(=O)N[C@H](CCC(=O)O)C(=O)N[C@H](C(=O)N[C@H]2CCCCNC(=O)[C@H](CC(N)=O)NC(=O)[C@@H](CC(=O)O)NC(=O)[C@H](Cc3c[nH]cn3)NC(=O)[C@@H](CC(C)C)NC(=O)[C@H]([C@@H](C)CC)NC(=O)[C@@H](CCCN)NC2=O)[C@@H](C)CC)CS1 | – | 153, TSB with lysed horse blood | 24 h, 37 °C, together with: ZnSO4 | > 64 µg/mL
CN[C@@H]1[C@H](O)[C@H](NC)[C@H]2O[C@]3(O)[C@H](O[C@@H]2[C@H]1O)O[C@H](C)C[C@@]3(O)CNCc1ccc(F)cc1 | – | D39X drug sensitive | – | 2 µg/mL
c1ccc(CCNC2CCCc3c2[nH]c2ccc(C4CCCCC4)cc32)cc1 (stereo not drawn) | broth microdilution | T4, supplemented C+Y medium | – | 1 µg/mL
COc1ccc(CCNc2cc(-c3ccccc3)nc3ncnn23)cc1 | microbial growth, broth dilution | 1629 | – | > 64 µM
CN[C@@H]1[C@H](O)[C@H](NC)[C@H]2O[C@]3(O)[C@H](O[C@@H]2[C@H]1O)O[C@H](C)C[C@@]3(O)CNCc1ccccc1 | – | R6 | – | 6.3 to 12.5 µg/mL
CC1(C)S[C@@H]2[C@H](NC(=O)[C@H](NC(=O)C3=C(O)C(c4ccccc4F)NC3=O)c3ccccc3)C(=O)N2[C@H]1C(=O)O (stereo partly drawn) | microbial growth, broth dilution | R6 | – | < 0.2 µg/mL
CCc1ccc([C@@H]2C[C@H](C(F)(F)F)n3ncc(C(=O)NCc4ccc(OC)cc4)c3N2)cc1 | microbial growth, broth dilution | 1629 | – | 64 µM
CC[C@H](C)[C@H](N)C1=N[C@H](C(=O)N[C@@H](CC(C)C)C(=O)N[C@H](CCC(=O)O)C(=O)N[C@@H](Cc2ccccc2)C(=O)N[C@H]2CCCCNC(=O)[C@H](CC(N)=O)NC(=O)[C@@H](CC(=O)O)NC(=O)[C@H](Cc3c[nH]cn3)NC(=O)[C@@H](Cc3ccccc3)NC(=O)[C@H]([C@@H](C)CC)NC(=O)[C@@H](CCCN)NC2=O)CS1 | – | 153, TSB with lysed horse blood | 24 h, 37 °C, together with: ZnSO4 | 64 µg/mL
Cc1ccc2nc(C(F)(F)F)c(C(=O)NCc3cccc(Cl)c3)n2c1 | microbial growth, broth dilution | 1629 | – | 64 µM
CC[C@@H](C)[C@H]1NC(=O)[C@H]([C@@H](C)CC)NC(=O)[C@@H](CCCN)NC(=O)[C@@H](NC(=O)[C@@H](NC(=O)[C@@H](CCC(=O)O)NC(=O)[C@H](CC(C)C)NC(=O)[C@@H]2CSC([C@@H](N)[C@@H](C)CC)=N2)[C@@H](C)CC)CCCCNC(=O)[C@H](CC(N)=O)NC(=O)[C@@H](CC(=O)O)NC(=O)[C@H](Cc2c[nH]cn2)NC1=O | – | 153, TSB with lysed horse blood | 24 h, 37 °C, together with: ZnSO4 | 64 µg/mL
CN[C@@H]1[C@H](O)[C@H](NC)[C@H]2O[C@]3(O)[C@H](O[C@@H]2[C@H]1O)O[C@H](C)C[C@@]3(O)CNCc1ccc(OC(F)(F)F)cc1 | – | R6 | – | 3.1 µg/mL
Cc1ccc2nc(C)c(C(=O)NCc3cccs3)n2c1 | microbial growth, broth dilution | 1629 | – | > 64 µM
CC[C@H](C)[C@H](N)C1=N[C@H](C(=O)N[C@@H](CC(C)C)C(=O)N[C@H](CCC(=O)O)C(=O)N[C@H](C(=O)N[C@H]2CCCCNC(=O)[C@H](CC(N)=O)NC(=O)[C@@H](CC(=O)O)NC(=O)[C@H](Cc3c[nH]cn3)NC(=O)[C@@H](Cc3ccc(-c4ccccc4)cc3)NC(=O)[C@H]([C@@H](C)CC)NC(=O)[C@@H](CCCN)NC2=O)[C@@H](C)CC)CS1 | – | 153, TSB with lysed horse blood | 24 h, 37 °C, together with: ZnSO4 | 2 µg/mL
CC(C)[C@H](NC(=O)[C@H](CCCCN)NC(=O)[C@H](CCCNC(=N)N)NC(=O)CNC(=O)[C@H](C)NC(=O)[C@H](CC(N)=O)NC(=O)[C@H](CCCNC(=N)N)NC(=O)[C@@H](NC(=O)[C@H](CCCCN)NC(=O)[C@H](CC(=O)O)NC(=O)[C@@H](NC(=O)[C@@H](NC(=O)[C@H](CCCNC(=N)N)NC(=O)[C@H](CCCNC(=N)N)NC(=O)[C@H](Cc1c[nH]c2ccccc12)NC(=O)[C@H](Cc1c[nH]c2ccccc12)NC(=O)CN)[C@@H](C)O)C(C)C)C(C)C)C(=O)O | – | clinical strain | 18 h, 37 °C | > 256 µg/mL
Cc1cccc(-c2nc(Nc3ccncn3)c3c(C)csc3n2)n1 | microbial growth, broth dilution | 1629 | – | 16 µM
